Measurements pooled from the literature.
Each line is one published result; not all experiments were run side by side.
Target: SRSF protein kinase 3 (SRPK3, Homo sapiens, UniProt Q9UPE1)

For `Nc1ncc2c(n1)-c1c([nH]c3ccc(C4=CCOCC4)cc13)CCC2`, the remaining binding was 100% (binding, competition with immobilised ligand; 1 µM).
The inhibition of `Cc1ccc(NC(=O)Nc2ccc(C#N)cc2)cc1` is reported as 36% (binding, KINOMEscan competitive binding; concentration not given).
The remaining binding of `C=CC(=O)N1CCCC(n2c(=O)c3ncccc3n(Cc3ccc(Oc4ccccc4)cc3)c2=O)C1` (stereo not shown) is reported as 100% (cell-free assay, competition with immobilised ligand; 1 µM).
The remaining activity of `COc1c(OCCCN2CCOCC2)ccc2c1N=C(NC(=O)c1cnc(N)nc1)N1CCN=C21` is reported as 106% (kinase activity, inhibitor; 1 µM; relative to: untreated control).
`CC(=O)N1c2ccc(-c3ccc(CNC(=O)c4cn5cc(-c6cnc(N)nc6)nc(N6CCOCC6)c5n4)cc3)cc2CC[C@@H]1C` gave a remaining binding of 89% (KINOMEscan; 10 µM).
The remaining binding of `Cc1ccc(-c2c(/C=C(\C#N)C(=O)NC(C)C)n(CCCO)c3ncnc(N)c23)cc1` is reported as 72% (cell-free assay, competition with immobilised ligand; 1 µM).
`CN(C(=O)N(C)c1ccc(C#N)cc1)c1ccccc1` has an inhibition of 0% (binding, KINOMEscan competitive binding; concentration not given).
For `CN1CCN(Cc2ccc(NC(=O)c3cccc(C#Cc4cnc(N)c5ncccc45)c3)cc2C(F)(F)F)CC1`, the remaining binding was 100% (cell-free assay, competition with immobilised ligand; 50 nM).
`CC(C)c1ccc(NC(=O)Nc2ccccc2)cc1` has an inhibition of 25% (binding, KINOMEscan competitive binding; concentration not given).
`CNC(=O)C[C@H](Cc1ccc(C#N)cc1)NC(=O)c1cc(-c2ccc(CN[C@H](C)c3ccc(C)cc3)o2)ccc1Cl`: “activity vs control” 109% (enzyme activity, inhibitor; 1 µM).
`O=C(Nc1ccccc1)Nc1cccc(C(F)(F)F)c1` gave an inhibition of 82% (binding, KINOMEscan competitive binding; concentration not given).
With `Cc1cccc(O[C@H]2CCC[C@@H](C(C)CNCc3ccncc3)C2)c1` (relative stereo) the inhibition was -4% (enzyme activity, inhibitor; 10 µM).
`COc1cc(Nc2nc(C)cc(-c3cnn4nc(OC)ccc34)n2)cc(C(F)(F)F)c1` has a remaining binding of 65% (binding, competition with immobilised ligand; 1 µM).
For `COc1c(Cl)cccc1Nc1c(-c2ccncc2C#C[C@@]2(C)CCCN2C(=O)/C=C/CN(C)C)[nH]c2c1C(=O)NCC2`, the remaining binding was 100% (binding, competition with immobilised ligand; 3 µM).
With `COc1ccc(NC(=O)Nc2ccc3c(c2)C(=O)N(C(C)CO)CC(C)C(CN(C)Cc2ccc4c(c2)OCO4)O3)cc1` (stereo not shown) the remaining binding was 100% (binding, competition with immobilised ligand; 10 µM).
`Nc1ncc(-c2cc(-c3cnn(CC(F)(F)F)c3)ncc2F)nc1C(=O)NC1CNCC(F)C1` (stereo not shown) has a remaining activity of 97.5% (enzyme activity; 1 µM; relative to: DMSO control).
The remaining binding of `C=C1CCCCCCCCCC(CO)C1=O` (stereo not shown) is reported as 100% (cell-free assay, competition with immobilised ligand; 10 µM).
The inhibition of `O=C(Nc1ccccc1)Nc1ccc(Cl)c(Cl)c1` is reported as 78% (binding, KINOMEscan competitive binding; concentration not given).
`O=C=[N][Ru-4]123([n]4c5ccc(O)cc5c5c6c(c7cc(F)c[n+]1c7c54)C(=O)NC6=O)[S+]1CC[S+]2CC[S+]3CC1` (stereo not shown) has a remaining activity of 57% (enzyme activity; 100 nM, human enzyme, with: 10 µM ATP; relative to: untreated).

A few entries again:
`Nc1ncc(-c2cc(-c3cnn(CC(F)(F)F)c3)ncc2F)nc1C(=O)NC1CNCC(F)C1` (stereo not shown) has a remaining activity of 97.5% (enzyme activity; 1 µM; relative to: DMSO control).
The remaining binding of `C=C1CCCCCCCCCC(CO)C1=O` (stereo not shown) is reported as 100% (cell-free assay, competition with immobilised ligand; 10 µM).
